Measured values pooled from the literature.
A part holds a random share of what one study measured. Changes are numbered by the printed parent chain.

Block 1
Molecule: PhoQ, residues 284 288 289 292 302 303 SIHLQL
Technique: Sort-seq
Measured: YFP reporter
Sample: E. coli
Notes: PhoQ-PhoP variant library
With: 10 µM Mg2+
Relative to: high Mg2+ state
Reading: higher = stronger signaling
target	fold induction
PhoP, residues 12 14 15 18 19 LFHKL (Escherichia coli, UniProt P23836)	0.831
PhoP, residues 12 14 15 18 19 QQAYL (Escherichia coli, UniProt P23836)	19.4
PhoP, residues 12 14 15 18 19 GMGLL (Escherichia coli, UniProt P23836)	1.63

Block 2
Target: ABI1, truncated, D143A, DHFR fusion (Arabidopsis thaliana)
Technique: DHFR PCA, deep sequencing
Sample: yeast
Notes: methotrexate growth selection, single substitutions
With: (+)-ABA 58 µM
Relative to: wild-type fitted maximum
Reading: higher = stronger binding
Starting sequence: PYL1, truncated, DHFR fusion (Arabidopsis thaliana); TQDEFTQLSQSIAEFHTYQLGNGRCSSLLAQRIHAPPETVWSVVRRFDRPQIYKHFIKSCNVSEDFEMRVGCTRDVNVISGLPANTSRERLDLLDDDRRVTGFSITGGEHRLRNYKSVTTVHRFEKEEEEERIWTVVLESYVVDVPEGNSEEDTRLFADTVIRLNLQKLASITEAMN; partner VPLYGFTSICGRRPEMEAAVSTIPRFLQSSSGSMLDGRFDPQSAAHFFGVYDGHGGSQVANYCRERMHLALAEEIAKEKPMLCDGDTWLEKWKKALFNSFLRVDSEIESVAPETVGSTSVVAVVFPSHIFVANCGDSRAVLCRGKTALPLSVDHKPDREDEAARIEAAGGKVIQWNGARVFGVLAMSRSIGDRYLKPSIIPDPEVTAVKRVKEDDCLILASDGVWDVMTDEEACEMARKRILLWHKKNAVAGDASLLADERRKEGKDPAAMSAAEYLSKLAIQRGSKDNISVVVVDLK
Variant	relative binding score [%]
M68N	79.3
L156D	70.4
E129L	92.5
Y53L	-9.72
T120R	-0.893
A84P	3.6
L20F	81.1
E139Y	80.7

Block 3
Target: PABPC1L2, full length, GST fusion (mouse, UniProt A0ABA7IW68)
Technique: RNAcompete
Molecule type: RNA
Sample: in vitro
Tested at: 20 nM
Notes: 7-mer, probes averaged, single round
Relative to: mean of 7-mers
Reading: higher = stronger binding
Construct (chain): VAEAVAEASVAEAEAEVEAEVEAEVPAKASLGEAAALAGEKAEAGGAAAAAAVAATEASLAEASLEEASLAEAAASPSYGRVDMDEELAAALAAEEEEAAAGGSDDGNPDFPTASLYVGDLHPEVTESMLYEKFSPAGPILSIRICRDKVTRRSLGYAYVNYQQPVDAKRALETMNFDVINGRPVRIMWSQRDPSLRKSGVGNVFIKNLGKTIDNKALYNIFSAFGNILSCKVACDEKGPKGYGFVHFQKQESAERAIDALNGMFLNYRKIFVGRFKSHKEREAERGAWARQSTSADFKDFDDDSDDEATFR
Sequence	7-mer Z-score
UUACGAU	-0.103
CCACUUA	-0.249
UCGGGCC	-0.108
GCCCUCG	-0.376
CCUACAG	-0.322
CGGCAAC	-0.137
ACAUAUC	-0.0554
ACAAGUC	0.0551

Other studies, line by line
H2BC12L: H2BC12L (Homo sapiens, UniProt P57053)
P1: PafA, mature enzyme, eGFP fusion (Elizabethkingia meningoseptica, UniProt Q9KJX5); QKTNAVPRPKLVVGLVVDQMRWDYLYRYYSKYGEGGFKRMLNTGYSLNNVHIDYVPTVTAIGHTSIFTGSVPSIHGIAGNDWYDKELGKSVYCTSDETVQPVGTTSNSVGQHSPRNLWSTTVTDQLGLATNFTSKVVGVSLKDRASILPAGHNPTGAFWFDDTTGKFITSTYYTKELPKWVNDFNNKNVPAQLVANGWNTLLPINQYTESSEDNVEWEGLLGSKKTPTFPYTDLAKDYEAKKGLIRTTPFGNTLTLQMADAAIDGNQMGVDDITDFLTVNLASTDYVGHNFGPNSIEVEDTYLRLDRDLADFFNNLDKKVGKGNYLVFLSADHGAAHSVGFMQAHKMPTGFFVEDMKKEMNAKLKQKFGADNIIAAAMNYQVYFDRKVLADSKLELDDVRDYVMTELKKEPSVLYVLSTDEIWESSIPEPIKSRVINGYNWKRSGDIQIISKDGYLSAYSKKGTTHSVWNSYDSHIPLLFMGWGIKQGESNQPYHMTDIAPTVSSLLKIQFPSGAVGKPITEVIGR
Molecule	tested on	test	test system	setting	how to read	endpoint	value
H2AZ1 (Homo sapiens, UniProt P0C0S5)	H2BC12L	cross-linking MS		hits only		interaction screen	cross-linked
P1 D271G	tungstate, free oxyanion	microfluidic competitive inhibition	in vitro, cell-free expressed	not given, derived from inhibition constants, unchanged parent 2230 nM	lower = stronger binding	oxyanion analog dissociation constant	2.15 µM
H2AX (Homo sapiens, UniProt P16104)	H2BC12L	cross-linking MS		hits only		interaction screen	cross-linked

A few entries again (block 2):
Variant	relative binding score [%]
M68N	79.3
L156D	70.4
E129L	92.5
